# Published values pooled from the literature.
# A part holds a random share of what one study measured.
# Sequence of UniProt O94921 (whole entry, looked up): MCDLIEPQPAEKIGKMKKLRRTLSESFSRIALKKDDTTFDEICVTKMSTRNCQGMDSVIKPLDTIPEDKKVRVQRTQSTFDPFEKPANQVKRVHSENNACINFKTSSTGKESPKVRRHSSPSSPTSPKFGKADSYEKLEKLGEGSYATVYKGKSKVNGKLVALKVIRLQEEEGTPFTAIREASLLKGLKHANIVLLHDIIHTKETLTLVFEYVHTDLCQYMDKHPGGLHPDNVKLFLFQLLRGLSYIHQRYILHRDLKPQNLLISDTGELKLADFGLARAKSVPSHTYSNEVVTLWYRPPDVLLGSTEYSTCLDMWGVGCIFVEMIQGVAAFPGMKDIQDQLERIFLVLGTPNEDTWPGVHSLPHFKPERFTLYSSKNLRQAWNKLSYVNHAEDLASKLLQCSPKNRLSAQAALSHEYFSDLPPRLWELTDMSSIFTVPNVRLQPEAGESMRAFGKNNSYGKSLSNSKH

# Set 1 — technique: competition protein-binding microarray; molecule type: double-stranded DNA, one strand shown; medium: in vitro; tested at: 2 µM; added: Pho4 competitor, 0.05 µM; direction: higher = stronger binding
# Target: Centromere-binding protein 1, full length, His-tagged (CBF1, Saccharomyces cerevisiae, UniProt P17106, residues 1-351)
# Sequence of UniProt P17106 (whole entry, looked up): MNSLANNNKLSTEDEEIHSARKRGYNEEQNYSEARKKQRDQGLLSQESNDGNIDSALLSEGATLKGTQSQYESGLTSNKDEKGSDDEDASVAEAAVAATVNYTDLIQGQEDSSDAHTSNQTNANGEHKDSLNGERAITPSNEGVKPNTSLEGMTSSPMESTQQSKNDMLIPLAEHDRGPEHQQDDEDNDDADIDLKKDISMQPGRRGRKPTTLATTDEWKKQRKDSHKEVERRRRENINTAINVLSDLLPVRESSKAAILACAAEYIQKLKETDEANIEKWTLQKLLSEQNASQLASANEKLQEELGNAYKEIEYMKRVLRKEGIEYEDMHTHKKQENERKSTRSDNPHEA
# Setting: whole 60-bp probe, lowest competitor level
Oligonucleotide,fluorescence intensity
ATGGATTGTCTCTGGCACGTTCCACTGGTGGCTCAGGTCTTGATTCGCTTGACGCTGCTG,78.2 a.u.
GTCTTGTCTCATTGAGCCGTGGGTGTCCCCACTTCAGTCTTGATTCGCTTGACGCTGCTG,68.7 a.u.
AAATTACTAAGTTGTCACATCACTTACCCCGTATGAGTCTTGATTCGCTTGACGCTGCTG,83.6 a.u.
CGGGGTTAAGTTTGCAGAGTGGGTGGCTTGCAGCAGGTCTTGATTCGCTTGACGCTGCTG,65 a.u.
CGGGGTTAAGTTTGACGGGTGGGTGGCTTGCAGCAGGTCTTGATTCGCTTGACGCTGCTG,68.4 a.u.
TGGATCTTCCACTGTCATGCTAATTGGTCTTAGGTTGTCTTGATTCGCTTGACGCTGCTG,61.9 a.u.
GAGTGCTTGCAATATCACAGCGGTAGCTAGACTCGCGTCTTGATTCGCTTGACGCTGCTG,54.5 a.u.
AAAGCGGTAATTTGTATCGTGGGTGCAGATATCTATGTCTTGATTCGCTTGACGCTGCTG,89.3 a.u.

# Set 2 — technique: protein-binding microarray; molecule type: double-stranded DNA, one strand shown; medium: in vitro; tested at: not given; direction: higher = stronger binding
# Target: Max-binding protein MNT, bHLH-zipper, MAX partner unstated (MNT, Homo sapiens, UniProt Q99583, residues 220-300)
# Setting: k-mer, scored over probes, only values ≥0.25
# Target sequence (chain): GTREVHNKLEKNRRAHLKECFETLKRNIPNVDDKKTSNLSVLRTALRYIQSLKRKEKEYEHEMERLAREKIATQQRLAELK
Oligonucleotide,E-score
AAACGTGA,0.356
CACATGTG,0.486
CCACACGC,0.389
CTCGTGTC,0.394
CCCCAACG,0.319
ACGCATGA,0.333
CACACGGG,0.282
ATGTGCGA,0.312

# Set 3 — technique: protein binding microarray; molecule type: double-stranded DNA, one strand shown; medium: in vitro; tested at: not given; baseline: not given; direction: higher = stronger binding
# Target: Histone acetyltransferase KAT6A, winged helix 1, GST fusion (KAT6A, Homo sapiens, UniProt Q92794, residues 1-85)
# Setting: 8-mer, flanks averaged, mean of 2 arrays, mostly near background
# Construct (chain): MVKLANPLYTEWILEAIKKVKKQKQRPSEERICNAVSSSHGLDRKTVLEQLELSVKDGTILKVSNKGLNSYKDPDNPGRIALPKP
Oligonucleotide,E-score
CGAACAAG,0.104
AAGCGTCC,0.0188
AGCCATTC,-0.216
ACGTACAA,-0.128
TAGGGAGA,-0.0941
CGCGGTAA,0.358
ATAGAATA,-0.185
AACCATCA,-0.0892

# Other studies, line by line
Structure (SMILES),target,effect on,technique,tested at,quantity,value
O=C(NS(=O)(=O)c1ccc(NCC2CCOCC2)c([N+](=O)[O-])c1)c1ccc(N2CCN(Cc3ccc(C(F)(F)F)cc3-c3ccc(Cl)cc3)CC2)cc1Oc1cnc2[nH]ccc2c1,"Cyclin-dependent kinase 14 (CDK14, Homo sapiens, UniProt O94921)",cell-free assay,competition with immobilised ligand,1 µM,remaining binding,100%

# Repeated from above (set 3):
Oligonucleotide,E-score
ACGTACAA,-0.128
TAGGGAGA,-0.0941
